Experimental data of several laboratories.
Several values in a cell are separate wells, animals, samples, runs or records. Values after ≈ are worked out from the molar mass of the structure shown.

Under “head-twitch response count”, `CCN(CC)C(=O)[C@@H]1C=C2c3cccc4c3c(cn4C(=O)c3cccs3)C[C@H]2N(C)C1` is recorded as 27.2 (magnetometer; C57BL/6J mouse, male; intraperitoneal, 0.75 mg/kg, 30 min session).
`CC(C)(C)C(=O)OCOP(=O)(OCOC(=O)C(C)(C)C)C1CCCN(O)C1=O` (stereo not shown) gave a GI50 of 508 nM (SK-OV-3).
`CC(C)CC(C(=O)N1CC2(CC1C#N)C(=O)Nc1ccccc12)N(C)C(=O)c1cc2c(F)cc(F)c(F)c2[nH]1` (stereo not shown) has an inhibition of 57% (human coronavirus 229E; viral replication; MRC-5; 0.001563 µM).
For `COc1ccccc1-c1n[nH]c2nc(NC3CCN(C(=O)Cc4ccc(F)cc4F)CC3)ncc12`, the relative abundance was 1.35 (bead binding, competition bead pull-down, refers to: LMJF.34.3980; Leishmania donovani extract; 10 µM; reference: vehicle).
`Cc1cc(Oc2nc(N3CC[C@@H](c4ccncc4)C3)ncc2F)[nH]n1` has a normalised growth of 20.8% and 7.55% (Mycobacterium tuberculosis; THP-1, H37Rv non-replicating; 0.09491 µM, day 4).
`O=C(C[Se]C(=O)c1ccco1)Nc1cccc(C(F)(F)F)c1` gave a mean TGI of 8590 nM (NCI60 renal subpanel; total growth inhibition, inhibitor; five-dose).
`COc1ccccc1-c1ccncc1C(=O)Nc1nnc(OCc2ccc(Cl)cc2)s1` gave a colony survival of 35.6% (HCT116 BRCA2-/-; 4 µM, average of 3 runs; reference: untreated).
`CN1C(=O)C(C2C3=C(CCCC3=O)Oc3ccc(Cl)cc32)C(=O)N(C)C1=O` (stereo not shown) has an IC50 of 100 to 1000 µg/mL (≈ 257 to 2570 µM) (3T3-L1 mature adipocytes; MTT; 72 h).
With `O=C(O)c1ccc(-c2nc(-c3ccccc3Cl)c3sccn23)cc1` the reticulated platelets was 17.2% and 11.1% and 22.1% and 19.9% (C57BL/6 mice, 5-fluorouracil treated; dose not given, day 10).
`[2H]C([2H])([2H])C1(C([2H])([2H])[2H])NC(=O)N(c2ccc(F)c(C(F)(F)F)c2)C1=O`: “worm burden reduction” 9.4% (Schistosoma mansoni; juvenile stage, infected mice; oral, 50 mg/kg; reference: untreated infected).
`COc1ccccc1-c1n[nH]c2nc(N[C@H]3CC[C@H](NS(=O)(=O)CC(C)C)CC3)ncc12` has a relative abundance of 1.05 (bead binding, competition bead pull-down, refers to: LINJ.36.1320; Leishmania donovani extract; 10 µM; reference: vehicle).
`Cc1cc(C(=O)Nc2nc3cccc(C)c3n2[C@H]2CCCCN(C(=O)/C=C/CN(C)C)C2)ccn1` gave a survival of 62.7% and 64.5% and 67% and 56.7% (Trypanosoma brucei brucei; 2T1 CLK1 overexpressing; 0.0781 µM, DMSO pretreated; reference: maximum).
For `O=C(O)C(Cl)Cl.OCCN(CCO)CCO`, the inhibition was 0% (Chenopodium album; herbicidal activity; 15 mg/mL, 21 days, pre-emergence greenhouse).
`Cc1ccc2c(n1)c(-c1cccc(S(C)(=O)=O)c1)c(C)n2C/C(F)=C/CN` has an inhibition of 52% (L-type calcium channel, rat, Benzothiazepine site; radioligand binding, Eurofins SafetyScreen; 10 µM).
Under “normalised enrichment score”, `CCCCCC1=C(NCC)C(=O)C(C/C=C(\C)CCC=C(C)C)=C(O)C1=O` is recorded as 2.99 (RNA-seq GSEA, refers to: HALLMARK_INTERFERON_GAMMA_RESPONSE; mouse, A53T α-synuclein lesioned, striatum; dose not given; reference: untreated A53T lesioned mice, direction not given).
For `COc1c(NC(=O)c2ccc(NC(=O)c3ccc(NC(=O)[C@H](CC#N)NC(=O)c4ccc(NC(=O)/C(C)=C/c5ccc(O)cc5)cc4)cc3)c(OC)c2O)ccc(C(=O)O)c1O`, the MIC was 0.125 µg/mL (≈ 0.148 µM) (Salmonella enterica serovar Kentucky; broth microdilution; ciprofloxacin-sensitive).
The infection of `Cc1ccc(NS(=O)(=O)c2c(C(=O)N3CCCCCC3)c(C)n(C)c2C)c(Cl)c1` is reported as 102% and 112% and 101% (Human alphaherpesvirus 1; viral infection; HaCaT; 3.704 µM, 36 h; reference: untreated).
The GI50 of `O=C(C[Se]C(=O)c1cccs1)Nc1cccc(C(F)(F)F)c1` is reported as 1650 nM (NCI60 prostate subpanel (PC-3, DU-145); cell growth, inhibitor; five-dose).
The ED50 of `CCN(CC)C(=O)[C@@H]1C=C2c3cccc4c3c(cn4C(=O)c3ccco3)C[C@H]2N(C)C1` is reported as 0.466 µmol/kg (head-twitch response, magnetometer detection; mouse C57BL/6J male; intraperitoneal).

Excerpt of the above:
For `O=C(O)C(Cl)Cl.OCCN(CCO)CCO`, the inhibition was 0% (Chenopodium album; herbicidal activity; 15 mg/mL, 21 days, pre-emergence greenhouse).
`Cc1ccc2c(n1)c(-c1cccc(S(C)(=O)=O)c1)c(C)n2C/C(F)=C/CN` has an inhibition of 52% (L-type calcium channel, rat, Benzothiazepine site; radioligand binding, Eurofins SafetyScreen; 10 µM).
Under “normalised enrichment score”, `CCCCCC1=C(NCC)C(=O)C(C/C=C(\C)CCC=C(C)C)=C(O)C1=O` is recorded as 2.99 (RNA-seq GSEA, refers to: HALLMARK_INTERFERON_GAMMA_RESPONSE; mouse, A53T α-synuclein lesioned, striatum; dose not given; reference: untreated A53T lesioned mice, direction not given).
